Published values pooled from the literature.
Numbered parts are unrelated; each lists some results of a single study.

Set 1
Target: Ras GTPase-activating protein-binding protein 1, full length (G3BP1, Homo sapiens, UniProt Q13283)
Chain of UniProt Q13283 (whole entry, looked up): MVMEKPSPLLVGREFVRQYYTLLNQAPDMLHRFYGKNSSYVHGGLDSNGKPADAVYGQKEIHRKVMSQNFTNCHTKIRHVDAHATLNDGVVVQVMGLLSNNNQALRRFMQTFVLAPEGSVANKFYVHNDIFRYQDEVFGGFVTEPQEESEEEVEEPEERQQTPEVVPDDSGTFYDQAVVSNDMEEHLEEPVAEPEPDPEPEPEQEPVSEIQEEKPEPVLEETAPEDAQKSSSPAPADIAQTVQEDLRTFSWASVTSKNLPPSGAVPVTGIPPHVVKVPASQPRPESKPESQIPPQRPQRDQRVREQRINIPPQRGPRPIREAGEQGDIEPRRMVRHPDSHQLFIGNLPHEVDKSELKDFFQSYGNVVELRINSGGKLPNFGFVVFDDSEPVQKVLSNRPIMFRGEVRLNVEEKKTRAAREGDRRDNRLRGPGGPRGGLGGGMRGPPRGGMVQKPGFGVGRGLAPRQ
Method: RNA Bind-n-Seq
Molecule type: RNA
Medium: in vitro
Tested at: 200 nM
Setting: whole 134-nt RNA, ends assumed
Added: 150 mM LiCl
Relative to: input library
Direction: higher = stronger binding
Quantity: log2 enrichment
Library: 7-deaza-guanosine replaces G
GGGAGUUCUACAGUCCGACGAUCACCAUGCAGGUGGGCAUCUUUGGGAAGUGGCGCAAGGGGGGGAUAGGGAGGGGGGUAACACUUUGGGAACAGGUGGUCCCAGGUCGUUUCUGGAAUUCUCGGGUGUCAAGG: 0.416
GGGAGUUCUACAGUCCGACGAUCCCUGUGCUACACAUCGUAUGUACCGAAUCAAAUUUUUUUAAAUUUUUAAAUUUUUUUAAAAAAGUAUUAUGUUACGCCGUUCGGAUCUGCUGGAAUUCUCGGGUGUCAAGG: -2.57
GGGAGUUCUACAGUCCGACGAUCUAACUUUAGAGGAGGAUCUGAUGGAUAUGGCAGUGGACGUGGAUUUGGGGAUGGCUAUAAUGGGUAUGGAGGAGGACCUGUAGGUGGCAAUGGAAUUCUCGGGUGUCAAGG: 0.0103
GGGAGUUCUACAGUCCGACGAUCGACUCUGAAGAAGAAGCUAUGGAGACUACACCAGCCAAAGGAAAGAAAGCUGCAAAAGUUGUUCCUGUGAAAGCCAAGAACGUGGCUGAGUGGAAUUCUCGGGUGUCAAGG: -0.943
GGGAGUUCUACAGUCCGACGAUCUGGCCCUGGUGGCAUGCGGGGAGGGAGAGGUGGCCUCAUGGAUCGUGGUGGUCCCGGUGGAAUGUUCAGAGGUGGCCGUGGUGGAGACAGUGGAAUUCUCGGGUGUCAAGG: 0.454
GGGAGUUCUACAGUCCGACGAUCUGGGAGGUGGAUUUUGUUUACUUUUUUAGCUCAUUUCCAGGGGUGGGAAUUUUUUUUUAAUAUGUGUCAUGAAUAAAGUUGUUUUUGAAAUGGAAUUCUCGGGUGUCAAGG: -0.047
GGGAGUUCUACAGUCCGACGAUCUGGCCCUGGUGGCAUGCGGUGAGGAAGAGGUGGCCUCAUGGAUCGUGGUGGUCCCGGUGGAAUGUUCAGAGGUGGCCGUGGUGGAGACAGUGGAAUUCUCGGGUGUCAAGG: 0.298
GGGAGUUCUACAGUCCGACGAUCUUUUCUCACGAUGCACCUCCCCCUGGCACUAAGAAAAAGCACUUAUCCAUUGAGCAGCUGAAUGCUCGUCGCAGGAAAGUAUGGCUCAGCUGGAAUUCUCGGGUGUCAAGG: 0.0858
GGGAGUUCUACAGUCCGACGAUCCCUGUGCUACACAUCGUAUGUACCGAAUCGGGGAAAAAAAGGAAAAAAAGGAAAAAAAGGAAAGUAUUAUGUUACGCCGUUCGGAUCUGCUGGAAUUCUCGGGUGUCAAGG: -0.134
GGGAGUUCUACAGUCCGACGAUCAGUCCUGUGCUACACAUCGUAUGUACCGAAUCGGAAAAAGGGAAAAAGGGGAAAAAGGAAAGUAUUAUGUUACGCCGUUCGGAUCUGCACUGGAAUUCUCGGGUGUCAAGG: -0.714
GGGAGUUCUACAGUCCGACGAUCCUGUGCUACACAUCGUAUGUACCGAAUCGGGGAAAAAGGGGUUUUUGGGGUUUUUUUGGGGAAAGUAUUAUGUUACGCCGUUCGGAUCUGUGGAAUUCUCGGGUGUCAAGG: -0.713

Set 2
Target: Interferon regulatory factor 5, full length, phosphomimetic (IRF5, Homo sapiens, UniProt Q13568-2, residues 1-514, S451D/S453D/S456D/S462D)
Method: protein-binding microarray
Molecule type: double-stranded DNA, one strand shown
Medium: in vitro
Tested at: 940 nM top
Setting: 60-bp whole probe
Added: salmon DNA 0.4 mg/ml
Relative to: random background probes
Direction: higher = stronger binding
Quantity: fitted relative affinity
Shared flanks, not repeated: GCCTAGCAC … GTCTTGATTCGCTTGACGCTGCTG
TTAAGTTTCGGTTCCGGTTAGTGCTAG: 14.7 z-score
GACGGTATCGTCTTTCGGGACGTGCTA: 3.13 z-score
TCACCTATGTCATTTACACTGTGCTAG: 0.414 z-score
GACGAATTGAGTATCGAGACGTGCTAG: 1.65 z-score
GACGGTCTCCTACTTCTGACGTGCTAG: 0.101 z-score
TTAGGTCTCGGTCTTGGTTAGTGCTAG: 4.16 z-score
TTAGGTTCCCGTTTCCTTTAGTGCTAG: 0.947 z-score
AGTATGTTCACTATTTAAGGGTGCTAG: -0.133 z-score
TTAGGTTCCGACTTTCGGTTAGTGCTA: 2.86 z-score
GCACGTGACTGTTTCCCAATGTGCTAG: -0.207 z-score
TTAAGTTTCGACACTGGGTTAGTGCTA: 7.76 z-score
TTAGGTATCGGGACTCGGTTAGTGCTA: 4.15 z-score
GACGATCTCAGACTGAAGACGTGCTAG: -0.302 z-score
GACGAACAGGGGACTGGAGACGTGCTA: 0.526 z-score
TTAGAACTGAGACCGGATTAGTGCTAG: -0.508 z-score
AGTTAATCCCTCTCAGGCATGTGCTAG: 0.278 z-score

Set 3
Target: Histone acetyltransferase KAT6A, both winged helices, GST fusion (KAT6A, Homo sapiens, UniProt Q92794, residues 1-181)
Method: protein binding microarray
Molecule type: double-stranded DNA, one strand shown
Medium: in vitro
Tested at: not given
Setting: 8-mer, flanks averaged, mean of 2 arrays, mostly near background
Relative to: not given
Direction: higher = stronger binding
Quantity: E-score
Residues (chain): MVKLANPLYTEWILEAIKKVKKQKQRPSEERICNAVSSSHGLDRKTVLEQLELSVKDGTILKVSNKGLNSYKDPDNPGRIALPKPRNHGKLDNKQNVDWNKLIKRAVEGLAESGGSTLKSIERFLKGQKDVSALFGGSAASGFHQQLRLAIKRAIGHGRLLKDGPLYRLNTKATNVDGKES
ATCCGCGC: 0.285
AGTCTTAT: -0.05
AGTGCTAG: -0.0956
GCCGGGGA: 0.168
GTGGATCA: -0.101
CCAACTTC: -0.167
CGACAACG: 0.148
ACTCTGCG: 0.0282
AGCATCAT: -0.168
CCTCTGCG: -0.0197
AACTGGAC: -0.112
CCTCGGCG: 0.289
CAGATATG: -0.111
AGGTACAA: -0.208
CGACCCAG: -0.00206
ACCGATAT: -0.0338
GAATCCGA: 0.124
GACCAGGA: -0.146
AAAGATAG: -0.13
CTTGGACC: -0.0141
GGATGCAC: 0.0426

Set 4
Target: RNA binding protein fox-1 homolog 2, RRM domain, GST-SBP tag (RBFOX2, Homo sapiens, UniProt O43251-10, residues 100-194)
Method: RNA Bind-n-Seq
Molecule type: RNA
Medium: in vitro
Tested at: 365 nM
Setting: natural RNA segment, single round, ends assumed
Relative to: no-protein control
Direction: higher = stronger binding
Quantity: RBNS enrichment (R)
Residues (chain): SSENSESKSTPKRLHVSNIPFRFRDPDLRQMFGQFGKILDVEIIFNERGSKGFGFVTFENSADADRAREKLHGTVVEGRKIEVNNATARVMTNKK
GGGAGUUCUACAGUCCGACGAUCCCUGUUCCUGAUGGCCCGUUAUUGGACACUGGUGAUGCUAUUAUCCUGUAUUAUUUAUUAAUAUCCUACCUAGAUGCUUGUAUGAGUACAAAGCAUAAAGAAACAGAUUUUGGAAUUCUCGGGUGCCAA: 0.493
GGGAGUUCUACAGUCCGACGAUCCUUGCCCAAUGUAGACUUUCCUUUAUUAGAUUGAAGUACACAACCUAAUAUGAUAUAUUAUUUUGUAGUAUCUCAGACUUUGUAAAUAAAUGCCAUUAUUUUUAUAUGGAUGGAAUUCUCGGGUGCCAA: 0.501
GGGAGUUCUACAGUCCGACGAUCAUUUAUUUAUAGAAAUUUUGGUACAGUGUACAUUGAAAACCAUGUAAAAUAUUGAAGUGUCUAACAAAUGGCAUUGAAGUGUCUUUAAUAAAGGUUCAUUUAUAAAUGUCUGGAAUUCUCGGGUGCCAA: 0.368
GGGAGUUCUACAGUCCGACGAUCGUUGAGUUGGGGGCUUGCUUAUAGUUUCAGAGUUGAGUUUAUUUGCAUGGUGUCAGGCAGGCAGGAUGGUGCCGGAGAAGUAGCUGAGAGAUACAUCCUGAUCUACAGGCUGGAAUUCUCGGGUGCCAA: 3.27
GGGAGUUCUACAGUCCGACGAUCGGUAAGGCAGAGCCCUCUGCUGAGAAUGUAGUAUUGUUUUUCCCCUCUCCCUCCUGCUUUCUUUUUGGAGCUUCUUUGGGUCAAAGACAUGGAAGUUGCUUCAGAUAUCUUGGAAUUCUCGGGUGCCAA: 0.468
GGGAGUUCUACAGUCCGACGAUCAGGGGCAUUGAGAAAAAAAAAAUGAAGGCAUUUUACAGUCUCUAAACAUCUUUAAGUGCCAUGAGUAAUUUUUCCUGACUCUGUUUCAUAGCUUUGUAAGAAUUCUGUGUUGGAAUUCUCGGGUGCCAA: 0.417
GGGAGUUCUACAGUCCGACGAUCCAGGGGCAAUGGCCCCAACCUCCCUUUCAGACUCCAUGAGCCCAGCCCCUAUGUGCCUAGAUGGUUUGGGGCUACUGGUGCGUGCAGGAGAGGUGGGGUCACCCAAGCUGUGGAAUUCUCGGGUGCCAA: 0.407
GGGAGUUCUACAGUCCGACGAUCGAGUGGUGGGUAUUGAUUAGGCCAUCAUUUCAAGAGAGUAGAUGCUAAGUUGGAUUUCGUGCUGCUGUAAAUUGGAACUGUCGACUCUAAGUGCCUUUACUUAGGAAAAGUGGAAUUCUCGGGUGCCAA: 0.815
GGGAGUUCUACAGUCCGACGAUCGUAUCGUGUUGUGGGCUGUUUGAGAAGACCUGUCCUCCUGAGCUGCUCCUUCCCAUGGUGCUCACAGGCCAGCAGAGCACCUCUUGUAGAUCUUGUUCCACCUCUAAUCUUGGAAUUCUCGGGUGCCAA: 0.772
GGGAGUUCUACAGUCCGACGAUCUUUUAAACCAUUUCUUUUGUUUAAAUAAAUAAAUAAGUAAAUAAAGCUAGUUCUAUUGAAAUGCAAACCUUUUUGUACCAUCUAUUCUUUAGUAGUUUAAUUAUUGGGAAUGGAAUUCUCGGGUGCCAA: 0.503
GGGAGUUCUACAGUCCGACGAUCAUUGUGAAAUGGAAAUGCUUUACAGGAAGUAAAUGCAAAUUACUUUUAAGUGUGCUUUAAAGAAAAAUAUUUUCCCCACAAGAGAAAUUUAAAUAAAGAAUUUUAUUUGUUGGAAUUCUCGGGUGCCAA: 1.36
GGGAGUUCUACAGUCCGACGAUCCCUUUGCAGUGAAAAACUUUUUGCUUCAUAUAGUUAAUUAUAUUCAUAUUGAAUGUAUUAACAGAUAGCAGUGCAAAAGCAUUCUUCCCAAGAGAAGAGUGUACCAUGCAUGGAAUUCUCGGGUGCCAA: 0.347

Set 5
Target: Prothrombin, mature alpha-thrombin (F2, Homo sapiens, UniProt P00734)
Method: aptamer microarray, sandwich
Molecule type: DNA with 2'F-ANA
Medium: in vitro
Tested at: 200 nM
Setting: whole 15-mer aptamer, many near background
Added: Cy3 exosite-II aptamer, 400 nM
Direction: higher = stronger binding
Quantity: mean fluorescence intensity
Sequence: GGTTGGTGTGGTTGG
2'F-ANA at 1 2 8 9 14: 53.5 a.u.
2'F-ANA at 4 6 7 8 9 10 14: 68 a.u.
2'F-ANA at 2 5 6 8 11 13: 57.4 a.u.
2'F-ANA at 2 6 10 12 13 14 15: 81.9 a.u.
2'F-ANA at 1 5 6 15: 54.7 a.u.
2'F-ANA at 1 2 3 4 5 6 7 8 9 13: 50.2 a.u.
2'F-ANA at 1 3 4 5 8 10 12 13 15: 92.6 a.u.
2'F-ANA at 1 2 4 5 6 7 11 14: 48.8 a.u.
2'F-ANA at 2 3 5 9 12 13 15: 129 a.u.
2'F-ANA at 2 3 4 12 13 14: 363 a.u.
2'F-ANA at 1 4 5 7 10 13 14 15: 45.1 a.u.
2'F-ANA at 1 2 6 7 10 13: 50.7 a.u.
2'F-ANA at 2 3 4 5 6 9 13 14 15: 48.3 a.u.
2'F-ANA at 3 4 5 9 13: 61.8 a.u.
2'F-ANA at 3 9 12 14: 597 a.u.
2'F-ANA at 4 5 9 11 13: 183 a.u.
2'F-ANA at 1 2 3 5 6 8 11 12 13 14: 67.8 a.u.
2'F-ANA at 2 4 5 6 9 11 15: 56.8 a.u.
2'F-ANA at 1 2 4 6 7 8 9 10 11: 51 a.u.
2'F-ANA at 2 3 4 5 6 8 11 12 13 15: 100 a.u.
2'F-ANA at 1 3 6 8 9 12 14 15: 113 a.u.
2'F-ANA at 1 4 6 9 11 13 14 15: 49.7 a.u.
2'F-ANA at 2 7 8 9 12 13 15: 651 a.u.
2'F-ANA at 3 4 5 8 13 15: 148 a.u.

A few entries again (set 2):
GACGGTCTCCTACTTCTGACGTGCTAG: 0.101 z-score
TTAGGTCTCGGTCTTGGTTAGTGCTAG: 4.16 z-score
TTAGGTTCCCGTTTCCTTTAGTGCTAG: 0.947 z-score
AGTATGTTCACTATTTAAGGGTGCTAG: -0.133 z-score
TTAGGTTCCGACTTTCGGTTAGTGCTA: 2.86 z-score
GCACGTGACTGTTTCCCAATGTGCTAG: -0.207 z-score
TTAAGTTTCGACACTGGGTTAGTGCTA: 7.76 z-score
TTAGGTATCGGGACTCGGTTAGTGCTA: 4.15 z-score
GACGATCTCAGACTGAAGACGTGCTAG: -0.302 z-score
GACGAACAGGGGACTGGAGACGTGCTA: 0.526 z-score
TTAGAACTGAGACCGGATTAGTGCTAG: -0.508 z-score
